Published values from different studies.
Compare with care: the assays were run in different laboratories. ± marks the error that the study gave.
Urease: Urease (Canavalia ensiformis, UniProt P07374)
UniProt P07374, sequence (whole entry, looked up): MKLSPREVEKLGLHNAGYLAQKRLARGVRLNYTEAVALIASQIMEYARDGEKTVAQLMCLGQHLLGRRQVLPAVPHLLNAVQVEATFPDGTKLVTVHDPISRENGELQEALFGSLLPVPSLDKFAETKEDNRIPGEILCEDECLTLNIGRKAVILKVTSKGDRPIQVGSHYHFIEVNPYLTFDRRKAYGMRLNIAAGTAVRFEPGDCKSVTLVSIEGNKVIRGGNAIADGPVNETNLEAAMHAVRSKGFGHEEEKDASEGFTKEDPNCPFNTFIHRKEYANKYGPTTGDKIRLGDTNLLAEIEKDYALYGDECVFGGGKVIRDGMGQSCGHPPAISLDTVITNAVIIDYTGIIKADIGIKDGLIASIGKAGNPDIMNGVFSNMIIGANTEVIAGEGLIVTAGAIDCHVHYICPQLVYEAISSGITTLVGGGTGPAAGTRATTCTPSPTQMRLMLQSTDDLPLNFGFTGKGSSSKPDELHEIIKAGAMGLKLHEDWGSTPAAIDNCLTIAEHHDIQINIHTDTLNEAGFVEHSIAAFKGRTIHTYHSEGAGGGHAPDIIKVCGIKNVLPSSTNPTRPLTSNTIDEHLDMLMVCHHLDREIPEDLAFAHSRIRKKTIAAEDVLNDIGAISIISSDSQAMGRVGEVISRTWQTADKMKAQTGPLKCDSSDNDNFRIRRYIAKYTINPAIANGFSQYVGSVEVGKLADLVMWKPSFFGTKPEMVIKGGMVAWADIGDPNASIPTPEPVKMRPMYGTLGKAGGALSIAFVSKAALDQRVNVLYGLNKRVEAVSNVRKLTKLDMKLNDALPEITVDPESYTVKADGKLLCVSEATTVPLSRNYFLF
crk3 with CYC6: crk3, with CYC6 (Leishmania mexicana, UniProt O15851)
SNCA pre-formed fibrils: Alpha-synuclein, pre-formed fibrils (SNCA, Homo sapiens, UniProt P37840)
MAL12: Alpha-glucosidase MAL12 (MAL12, Saccharomyces cerevisiae S288c, UniProt P53341)
UniProt P53341, sequence (whole entry, looked up): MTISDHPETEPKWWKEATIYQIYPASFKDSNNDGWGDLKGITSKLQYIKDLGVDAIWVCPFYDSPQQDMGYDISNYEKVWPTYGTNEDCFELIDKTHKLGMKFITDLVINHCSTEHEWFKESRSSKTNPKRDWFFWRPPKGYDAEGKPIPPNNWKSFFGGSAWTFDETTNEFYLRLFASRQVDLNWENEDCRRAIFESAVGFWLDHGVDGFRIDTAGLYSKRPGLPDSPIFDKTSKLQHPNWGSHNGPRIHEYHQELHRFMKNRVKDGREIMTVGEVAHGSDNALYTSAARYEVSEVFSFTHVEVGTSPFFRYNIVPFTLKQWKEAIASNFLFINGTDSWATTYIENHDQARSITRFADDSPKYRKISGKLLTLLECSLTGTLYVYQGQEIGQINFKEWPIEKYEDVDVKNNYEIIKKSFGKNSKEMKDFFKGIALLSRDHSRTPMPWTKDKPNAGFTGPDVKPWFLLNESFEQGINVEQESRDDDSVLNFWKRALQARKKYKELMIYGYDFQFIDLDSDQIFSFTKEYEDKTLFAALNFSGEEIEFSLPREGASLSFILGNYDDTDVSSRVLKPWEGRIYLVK
PDE1C: Dual specificity calcium/calmodulin-dependent 3',5'-cyclic nucleotide phosphodiesterase 1C (PDE1C, Homo sapiens, UniProt Q14123)
UniProt Q14123, sequence (whole entry, looked up): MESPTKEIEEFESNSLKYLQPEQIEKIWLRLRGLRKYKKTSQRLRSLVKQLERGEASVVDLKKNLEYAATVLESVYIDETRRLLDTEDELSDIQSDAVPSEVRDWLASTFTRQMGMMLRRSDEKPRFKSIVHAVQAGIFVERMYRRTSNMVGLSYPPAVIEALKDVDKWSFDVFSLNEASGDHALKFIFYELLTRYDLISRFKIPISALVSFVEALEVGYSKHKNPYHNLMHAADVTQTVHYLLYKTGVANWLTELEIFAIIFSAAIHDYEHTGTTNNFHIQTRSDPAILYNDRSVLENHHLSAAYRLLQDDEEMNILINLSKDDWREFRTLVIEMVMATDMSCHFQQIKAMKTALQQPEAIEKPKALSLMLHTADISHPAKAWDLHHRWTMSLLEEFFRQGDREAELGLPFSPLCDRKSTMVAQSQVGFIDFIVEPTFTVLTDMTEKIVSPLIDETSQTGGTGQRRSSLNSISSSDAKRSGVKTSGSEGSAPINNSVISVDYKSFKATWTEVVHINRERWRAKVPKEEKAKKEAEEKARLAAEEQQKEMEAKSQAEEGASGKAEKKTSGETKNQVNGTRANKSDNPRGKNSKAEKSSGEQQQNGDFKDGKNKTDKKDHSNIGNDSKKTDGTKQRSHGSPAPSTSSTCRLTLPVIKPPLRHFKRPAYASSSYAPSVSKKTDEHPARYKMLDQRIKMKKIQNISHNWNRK
UniProt P16050, sequence (whole entry, looked up): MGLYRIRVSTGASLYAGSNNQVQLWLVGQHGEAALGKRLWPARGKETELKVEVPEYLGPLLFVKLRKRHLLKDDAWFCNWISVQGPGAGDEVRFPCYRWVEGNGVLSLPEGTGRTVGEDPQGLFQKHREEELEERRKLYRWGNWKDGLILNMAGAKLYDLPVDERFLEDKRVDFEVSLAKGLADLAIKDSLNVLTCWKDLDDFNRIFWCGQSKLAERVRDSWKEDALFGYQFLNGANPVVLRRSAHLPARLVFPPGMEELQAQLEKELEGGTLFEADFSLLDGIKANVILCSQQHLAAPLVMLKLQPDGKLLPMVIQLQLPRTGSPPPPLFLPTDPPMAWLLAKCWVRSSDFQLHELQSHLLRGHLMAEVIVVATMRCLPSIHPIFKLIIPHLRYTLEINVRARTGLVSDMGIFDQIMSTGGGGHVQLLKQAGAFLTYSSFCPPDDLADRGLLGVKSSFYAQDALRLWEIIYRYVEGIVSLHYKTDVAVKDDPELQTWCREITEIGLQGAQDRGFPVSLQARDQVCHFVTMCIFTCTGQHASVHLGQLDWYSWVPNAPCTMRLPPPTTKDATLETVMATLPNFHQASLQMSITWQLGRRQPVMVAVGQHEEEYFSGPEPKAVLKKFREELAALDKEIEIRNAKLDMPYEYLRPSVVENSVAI
UniProt P40306, sequence (whole entry, looked up): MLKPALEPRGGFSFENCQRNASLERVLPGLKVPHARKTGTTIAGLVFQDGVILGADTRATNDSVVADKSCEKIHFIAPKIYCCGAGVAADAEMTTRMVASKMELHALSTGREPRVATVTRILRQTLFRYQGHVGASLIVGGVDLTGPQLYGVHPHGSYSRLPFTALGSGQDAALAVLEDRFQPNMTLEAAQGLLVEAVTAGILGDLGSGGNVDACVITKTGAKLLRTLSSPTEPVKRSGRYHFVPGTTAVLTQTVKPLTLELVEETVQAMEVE
UniProt P51659, sequence (whole entry, looked up): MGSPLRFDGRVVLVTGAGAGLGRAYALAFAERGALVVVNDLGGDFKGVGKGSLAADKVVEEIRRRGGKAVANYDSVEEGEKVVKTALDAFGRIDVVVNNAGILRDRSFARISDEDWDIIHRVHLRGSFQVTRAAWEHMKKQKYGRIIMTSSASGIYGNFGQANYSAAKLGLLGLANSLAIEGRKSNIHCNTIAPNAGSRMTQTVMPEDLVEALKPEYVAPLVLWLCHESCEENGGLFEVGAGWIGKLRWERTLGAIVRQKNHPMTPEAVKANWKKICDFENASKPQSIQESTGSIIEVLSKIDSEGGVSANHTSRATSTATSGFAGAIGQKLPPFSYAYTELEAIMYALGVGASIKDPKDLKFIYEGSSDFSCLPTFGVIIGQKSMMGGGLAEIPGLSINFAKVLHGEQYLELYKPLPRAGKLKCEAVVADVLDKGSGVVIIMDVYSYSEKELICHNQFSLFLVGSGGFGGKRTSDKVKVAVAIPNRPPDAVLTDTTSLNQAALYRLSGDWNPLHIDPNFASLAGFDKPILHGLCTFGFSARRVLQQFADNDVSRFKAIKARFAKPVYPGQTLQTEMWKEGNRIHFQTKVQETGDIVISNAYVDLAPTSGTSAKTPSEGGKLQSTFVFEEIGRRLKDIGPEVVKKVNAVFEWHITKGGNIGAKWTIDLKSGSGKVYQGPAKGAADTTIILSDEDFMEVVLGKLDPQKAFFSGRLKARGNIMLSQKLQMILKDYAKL
UniProt P35346, sequence (whole entry, unmodified, looked up): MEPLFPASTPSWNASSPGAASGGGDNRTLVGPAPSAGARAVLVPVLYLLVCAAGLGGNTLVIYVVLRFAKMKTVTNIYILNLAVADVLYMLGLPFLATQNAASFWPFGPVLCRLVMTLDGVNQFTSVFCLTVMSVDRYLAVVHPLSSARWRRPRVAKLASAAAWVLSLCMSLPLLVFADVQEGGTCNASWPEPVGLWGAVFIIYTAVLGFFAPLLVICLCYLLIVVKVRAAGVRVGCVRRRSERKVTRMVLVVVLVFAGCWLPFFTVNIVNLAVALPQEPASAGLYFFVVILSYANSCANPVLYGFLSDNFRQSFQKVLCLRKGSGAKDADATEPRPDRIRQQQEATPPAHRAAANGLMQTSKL
UniProt P49759, sequence (whole entry, looked up): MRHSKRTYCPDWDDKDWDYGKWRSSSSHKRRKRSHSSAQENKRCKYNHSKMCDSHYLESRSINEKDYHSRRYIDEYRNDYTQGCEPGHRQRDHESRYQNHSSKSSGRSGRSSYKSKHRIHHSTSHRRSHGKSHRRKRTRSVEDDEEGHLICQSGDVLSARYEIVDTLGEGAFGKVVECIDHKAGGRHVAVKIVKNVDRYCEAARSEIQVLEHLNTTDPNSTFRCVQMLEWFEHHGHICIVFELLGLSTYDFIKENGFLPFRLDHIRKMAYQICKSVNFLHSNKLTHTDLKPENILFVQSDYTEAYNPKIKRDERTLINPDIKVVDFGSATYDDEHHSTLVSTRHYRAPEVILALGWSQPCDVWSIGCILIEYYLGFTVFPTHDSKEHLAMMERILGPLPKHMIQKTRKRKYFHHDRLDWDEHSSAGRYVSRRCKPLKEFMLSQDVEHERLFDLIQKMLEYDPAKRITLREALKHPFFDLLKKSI
UniProt Q16769, sequence (whole entry, looked up): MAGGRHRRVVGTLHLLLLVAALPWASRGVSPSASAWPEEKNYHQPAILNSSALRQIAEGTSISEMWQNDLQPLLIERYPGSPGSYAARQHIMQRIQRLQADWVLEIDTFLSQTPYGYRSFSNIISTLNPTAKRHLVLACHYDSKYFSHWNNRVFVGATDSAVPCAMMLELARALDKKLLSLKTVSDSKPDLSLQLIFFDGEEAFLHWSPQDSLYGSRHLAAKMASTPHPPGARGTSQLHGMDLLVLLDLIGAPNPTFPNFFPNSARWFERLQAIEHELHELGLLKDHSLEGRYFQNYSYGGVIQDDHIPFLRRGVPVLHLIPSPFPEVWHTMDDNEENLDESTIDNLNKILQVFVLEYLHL

Compound | target | assay | test system | conditions | IC50
O=[N+]([O-])c1ccccc1-c1cc(CN2c3ccccc3C=Cc3ccccc32)on1 | Urease | enzyme activity, inhibitor | – | – | > 27000 nM
N=C(c1ccc([N+](=O)[O-])o1)N1CCC(NC(=O)c2cc(-c3ccc(F)cc3F)on2)(c2nc3ccccc3[nH]2)CC1 | Stimulator of interferon genes protein (STING1, Homo sapiens, UniProt Q86WV6, H232R) | reporter gene | – | – | 1520 nM
Cc1ccc2c(c1)nc(NC(=O)c1cccc(C(F)(F)F)c1)n2[C@H]1CC[C@H](N)CC1 | Dual specificity protein kinase CLK1 (CLK1, Homo sapiens, UniProt P49759) | ADP-Glo | – | 10 min pre-incubation, added: ATP 10 µM | > 20000 nM
Cc1ccccc1-c1cc(CN2c3ccccc3C=Cc3ccccc32)on1 | Urease | enzyme activity, inhibitor | – | – | 8640 nM
O=C(Nc1cc(-c2c(F)cccc2F)[nH]n1)c1ccccc1 | crk3 with CYC6 | enzyme activity, inhibitor, radiometric | – | added: Leishmania major CYC6 cyclin, 1 µM ATP | 3000 nM
CN1CCC(n2cc(-c3cccc4cc(NC(=O)Nc5ccc(C(=O)NO)cc5)ccc34)cn2)CC1 | SNCA pre-formed fibrils | binding to RAGE, inhibitor, ELISA | – | added: FLAG-α-syn PFFs 100 nM | 1000 nM
CN1CCCN(c2cnc3c(cc(C(=O)NCc4ccc(Cl)cc4)c(=O)n3CC(=O)N3CC(C)(F)C3)n2)C1=O | DNA polymerase catalytic subunit (Human cytomegalovirus, UniProt P08546) | enzyme activity | – | retest | 5250 nM
COc1cc(C(c2c(O)c3ccccc3oc2=O)c2c(O)c3ccccc3oc2=O)ccc1OCc1cn(CC(=O)Nc2ccccc2)nn1 | MAL12 | enzyme activity, inhibitor | – | – | 37100 nM
Cc1ccc(N=C2CC(=O)c3sc(C)nc3C2=O)cc1 | Histone-lysine N-methyltransferase SETD2 (SETD2, Homo sapiens, UniProt Q9BYW2) | enzyme activity, inhibitor | – | – | 2300 nM
O=P(O)(O)O[C@H]1[C@H](OP(=O)(O)O)[C@@H](OP(=O)(O)O)[C@@H](O)[C@@H](O)[C@@H]1OP(=O)(O)O | Inositol-tetrakisphosphate 1-kinase (Homo sapiens, UniProt Q13572) | enzyme activity, inhibitor | – | – | 220 nM
Cc1ccc(NS(=O)(=O)c2c(C)[nH]c(C)c2C(=O)N2CCCC2)cc1 | D(2) dopamine receptor (DRD2, Homo sapiens, UniProt P14416) | – | – | – | > 100000 nM
CC1CC=CC(=O)C(O)C(O)CC2OC2c2cc(O)cc(O)c2C(=O)O1 (centres unmarked) | Mitogen-activated protein kinase kinase kinase 7 (MAP3K7, Homo sapiens, UniProt O43318) | enzyme activity, inhibitor, ATP luminescence | – | – | 80 nM
Cc1nn(-c2cccc(N)c2)c(=O)c2cnc(Nc3ccc(N4CCNCC4)cc3)nc12 | Leucine-rich repeat serine/threonine-protein kinase 2 (LRRK2, Homo sapiens, UniProt Q5S007, G2019S) | enzyme activity, inhibitor | – | – | > 10000 nM
CCN1/C(=C/C(C)=O)Sc2ccc(F)cc21 | Alpha-2B adrenergic receptor (ADRA2B, Homo sapiens, UniProt P18089) | ligand displacement, radioligand | – | – | 1400 nM
COc1ccc(OC)c(CN2CCN(Cc3cc(OC)c(O)c(OC)c3)CC2)c1 | Alpha-synuclein, fibrils (SNCA, Homo sapiens, UniProt P37840) | fibril growth, inhibitor, FlAsH fluorescence | – | added: LBD brain-amplified fibril seeds | 16000 ± 1000 nM
NC(=O)c1cccc(-c2cnn3ccc(Nc4ccc(N5CCOCC5)cc4)nc23)c1 | crk3 with CYC6 | enzyme activity, inhibitor, radiometric | – | added: Leishmania major CYC6 cyclin, 1 µM ATP | 260 nM
Cc1cc(C)nc(NC(=S)N2CCN(Cc3ccc(C(F)(F)F)cc3)CC2)c1 | Peroxisomal multifunctional enzyme type 2 (HSD17B4, Homo sapiens, UniProt P51659) | enzyme activity, inhibitor | – | – | > 57000 nM
Cc1cnc(S)n1C | Tyrosine-protein kinase SYK, tandem SH2 domains (SYK, Homo sapiens, UniProt P43405) | binding, inhibitor, TR-FRET | – | added: FITC-FCER1G phospho-ITAM peptide | 15000 ± 3500 nM

Compound | target | assay | test system | conditions | IC50
C1=Cc2ccccc2N(Cc2cc(-c3ccc(OCc4ccccc4)cc3)no2)c2ccccc21 | Urease | enzyme activity, inhibitor | – | – | > 27000 nM
CC(C)C[C@H](NC(=O)[C@H](Cc1ccc(CN)cc1)NC(=O)[C@H](Cc1ccccc1)N=[N+]=[N-])C(=O)N[C@@H](CC1CC2CCC1C2)C(=O)[C@@]1(C)CO1 (stereo in doubt) | Proteasome subunit beta type-10 (Homo sapiens, UniProt P40306) | inhibitor, biochemical | – | – | 3120 nM
CCn1nc(Cl)c2c1-c1cnc(N)c(c1)O[C@H](C)c1cc(F)ccc1-c1nn(C)cc1C2 | STE20-like serine/threonine-protein kinase (SLK, Homo sapiens, UniProt Q9H2G2) | enzyme activity, inhibitor, radiometric | – | – | 44 nM
O=C(Nc1cc(-c2ccc(Cl)cc2)[nH]n1)c1cccs1 | crk3 with CYC6 | enzyme activity, inhibitor, radiometric | – | added: Leishmania major CYC6 cyclin, 1 µM ATP | 1200 nM
Cc1cc(NC2CCN(C)CC2)ccc1-c1cc2c(N3CCC[C@H](C(=O)NCc4ccc(OC(F)(F)F)cc4)C3)ncnc2[nH]1 | Misshapen-like kinase 1 (MINK1, Homo sapiens, UniProt Q8N4C8) | enzyme activity, inhibitor, mobility shift | – | – | 6430 nM
CCOC(=O)c1ccccc1-c1c2ccc(=O)cc-2oc2cc(OCCCNC(=O)C(OC(=O)c3ccc(O)c(OC)c3)C3CC3)ccc12 (centres unmarked) | Polyunsaturated fatty acid lipoxygenase ALOX15 (ALOX15, Homo sapiens, UniProt P16050) | enzyme activity, inhibitor, absorbance | – | – | 43300 nM
CSc1cc(C)[nH]c(=O)c1CNC(=O)c1cc(Cl)c2c(c1C)OC(C)(C1CCC(N(C)C)CC1)O2 (centres unmarked) | Histone-lysine N-methyltransferase EZH2, PRC2 pentameric complex (EZH2, Homo sapiens, UniProt Q15910) | enzyme activity, inhibitor | – | added: H3K27me3 activating peptide | 0.033 nM
COc1ccc(C(=O)c2c(C(=O)NCCCN(C)C)oc3ccc(Cl)cc3c2=O)cc1OC | Growth hormone secretagogue receptor type 1 (GHSR, Homo sapiens, UniProt Q92847) | receptor internalization, ELISA | HEK293T | 45 min, 37 °C | 8.32 nM
CN1CCN(c2ccc3cc(NC(=O)Nc4cccc(C(=O)NO)c4)ccc3c2)CC1 | SNCA pre-formed fibrils | binding to mouse LAG3 D1, inhibitor, ELISA | – | added: FLAG-α-syn PFFs 100 nM | 4940 nM
CCOc1cc(CN2CCC3(CC2)CN(c2ccc(C(=O)O)cc2)C(=O)N3)c(C2CC2)cc1C | Somatostatin receptor type 5 (SSTR5, Homo sapiens, UniProt P35346, N100A) | cAMP level, antagonist, GloSensor | AD293 | N100A mutant, bandwidth 2.64, added: CST17 EC80 and forskolin | 11.5 nM
Cc1cncn1Cc1ccc(Nc2cccc(F)c2)cc1 | Glutaminyl-peptide cyclotransferase (QPCT, Homo sapiens, UniProt Q16769) | – | – | – | 390 nM
COc1cc(OC)c(/N=N/c2ccc(C(=O)NO)c(F)c2)c(OC)c1 | Urease | enzyme activity, inhibitor, absorbance | – | pH 7.3 | 88000 nM
COc1cc(OC)c2c(=O)cc(-c3cc(C)c(OCCCN4CCN(C)CC4)c(C)c3)oc2c1 | Bromodomain testis-specific protein, BD2 (BRDT, Homo sapiens, UniProt Q58F21) | cell-free assay, TR-FRET | – | – | 2210 nM
CC(C)(C)n1ncc2c(=O)n(Cc3cccc(F)c3)c(NCC3CCCCC3)nc21 | PDE1C | enzyme activity, inhibitor, radiometric | – | – | 23.7 nM
CCCCCCCCC=CCCCCCCCC(=O)OCC(C)(C)CC1=C(O)C(=O)c2ccccc2C1=O | MAL12 | enzyme activity, inhibitor | – | – | 3240 nM
CC(C)(C)n1ncc2c(=O)n(Cc3cccc(F)c3)c(NCc3ccccn3)nc21 | PDE1C | enzyme activity, inhibitor, radiometric | – | – | 3.9 nM
COc1ccc(NC(=O)c2cnn(-c3ccc([N+](=O)[O-])cc3)c2C(F)(F)F)cc1OC | Prostaglandin G/H synthase 1 (PTGS1, Ovis aries, UniProt P05979) | enzyme activity, inhibitor | – | – | 5590 nM

A few entries again:
Compound | target | assay | test system | conditions | IC50
O=P(O)(O)O[C@H]1[C@H](OP(=O)(O)O)[C@@H](OP(=O)(O)O)[C@@H](O)[C@@H](O)[C@@H]1OP(=O)(O)O | Inositol-tetrakisphosphate 1-kinase (Homo sapiens, UniProt Q13572) | enzyme activity, inhibitor | – | – | 220 nM
Cc1cc(C)nc(NC(=S)N2CCN(Cc3ccc(C(F)(F)F)cc3)CC2)c1 | Peroxisomal multifunctional enzyme type 2 (HSD17B4, Homo sapiens, UniProt P51659) | enzyme activity, inhibitor | – | – | > 57000 nM
COc1cc(OC)c2c(=O)cc(-c3cc(C)c(OCCCN4CCN(C)CC4)c(C)c3)oc2c1 | Bromodomain testis-specific protein, BD2 (BRDT, Homo sapiens, UniProt Q58F21) | cell-free assay, TR-FRET | – | – | 2210 nM
